Published values from different studies.
A part holds a random share of what one study measured. Substitutions count along the parent as printed.

Set 1 — target: CCNA1, cyclin fold, Cln2 fusion (human); method: yeast growth competition, sequencing; matrix: yeast; notes: strong parent motif; reference: not given; direction: higher = stronger binding; measurement: normalised enrichment score
Starting sequence: viral docking peptide; YKVKRRLVFGADD; partner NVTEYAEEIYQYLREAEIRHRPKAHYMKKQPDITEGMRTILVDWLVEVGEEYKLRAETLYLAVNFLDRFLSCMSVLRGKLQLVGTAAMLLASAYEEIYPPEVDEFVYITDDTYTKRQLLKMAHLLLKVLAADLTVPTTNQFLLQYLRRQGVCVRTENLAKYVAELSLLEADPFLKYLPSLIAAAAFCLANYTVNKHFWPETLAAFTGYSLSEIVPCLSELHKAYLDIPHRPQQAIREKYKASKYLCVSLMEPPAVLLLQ
A11V: 1.2
R5Q: 0.443
A11P: 1.58
R5M: 0.408
A11K: 0.868
K4S: 0.911
L7K: 0.312
D12T: 1.24
D13A: 0.218
K4A: -0.242
V3D: 0.146
G10Q: 1.39
K4W: -0.157
F9R: 0.333
R6P: 0.079
L7M: 0.363
F9C: 0.487
R6W: -0.41
R5I: -0.00086
K2V: 1.22
G10N: 1.63
L7T: -0.0135
V3H: 0.0892
K2P: 1.47
D12P: 1.34

Set 2 — method: protein-binding microarray; molecule type: double-stranded DNA, one strand shown; matrix: in vitro; tested at: not given; direction: higher = stronger binding; measurement: E-score
Target: Transcription factor SOX-2, HMG box (SOX2, Homo sapiens, UniProt P48431, residues 19-118)
Chain of UniProt P48431 (19-118, looked up): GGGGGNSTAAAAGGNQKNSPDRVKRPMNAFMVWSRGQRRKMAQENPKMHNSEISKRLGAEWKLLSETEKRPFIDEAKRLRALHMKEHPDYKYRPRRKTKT
Notes: k-mer, scored over probes, only values ≥0.25
TAAAGAA: 0.261
CATAATG: 0.369
AGAATAA: 0.367
ATACAAA: 0.341
AATACAC: 0.257
ACAAAGC: 0.309
AATTGGT: 0.278
CTGAATC: 0.296

Set 3 — method: RNA Bind-n-Seq; molecule type: RNA; matrix: in vitro; tested at: 20 nM; notes: 6-mer, flanks averaged, single round; with: 150 mM LiCl; reference: input library; direction: higher = stronger binding; measurement: 6-mer enrichment (R)
Target: TAR DNA-binding protein 43, full length, His tag (TARDBP, Homo sapiens, UniProt Q13148, residues 1-414)
UUAUUG: 1.13
AUUACU: 0.887
GGAUCG: 1.09
GGGACA: 1.04
UAUUUC: 1.04
ACUUUU: 1.11
GUUCGU: 1.03
AUCUCC: 0.918

Set 4 — read-out: binding; method: phage display NGS; molecule type: peptide; tested at: concentration not given; reference: input library; measurement: enrichment fold change
Target: UDP-N-acetylglucosamine--peptide N-acetylglucosaminyltransferase 110 kDa subunit (OGT, Homo sapiens, UniProt O15294)
Chain of UniProt O15294 (whole entry, looked up): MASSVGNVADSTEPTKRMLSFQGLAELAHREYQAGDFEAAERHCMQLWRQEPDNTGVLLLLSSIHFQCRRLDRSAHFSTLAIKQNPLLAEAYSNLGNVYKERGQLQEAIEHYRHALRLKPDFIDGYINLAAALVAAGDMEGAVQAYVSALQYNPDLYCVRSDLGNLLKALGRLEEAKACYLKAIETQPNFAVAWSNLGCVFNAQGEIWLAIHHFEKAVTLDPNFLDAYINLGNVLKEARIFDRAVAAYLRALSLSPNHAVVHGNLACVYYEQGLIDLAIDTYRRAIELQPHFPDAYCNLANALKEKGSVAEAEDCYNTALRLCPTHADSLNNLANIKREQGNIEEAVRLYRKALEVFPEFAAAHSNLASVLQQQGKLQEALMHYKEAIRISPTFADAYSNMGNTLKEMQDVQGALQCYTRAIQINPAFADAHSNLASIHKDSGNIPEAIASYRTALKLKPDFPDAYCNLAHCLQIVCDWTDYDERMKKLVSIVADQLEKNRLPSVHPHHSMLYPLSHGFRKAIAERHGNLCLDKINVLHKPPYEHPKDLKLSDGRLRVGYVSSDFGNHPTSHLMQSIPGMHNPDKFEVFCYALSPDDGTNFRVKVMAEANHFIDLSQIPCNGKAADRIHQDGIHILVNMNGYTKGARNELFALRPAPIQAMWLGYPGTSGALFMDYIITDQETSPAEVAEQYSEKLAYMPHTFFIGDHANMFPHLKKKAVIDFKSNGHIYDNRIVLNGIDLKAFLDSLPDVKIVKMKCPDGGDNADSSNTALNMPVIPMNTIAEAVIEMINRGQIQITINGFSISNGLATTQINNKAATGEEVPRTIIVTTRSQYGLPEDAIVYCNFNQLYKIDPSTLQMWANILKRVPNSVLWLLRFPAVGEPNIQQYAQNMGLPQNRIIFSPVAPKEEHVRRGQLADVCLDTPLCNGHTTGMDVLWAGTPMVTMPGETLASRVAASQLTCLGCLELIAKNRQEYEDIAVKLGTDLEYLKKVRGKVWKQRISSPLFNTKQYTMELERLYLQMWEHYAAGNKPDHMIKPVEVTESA
SHKPHRASMPSALQF: 2.36
HTYHHLLHAEDGHSY: 14.8
AFVPPWAPMYQIVMG: 2.47
QQIPSIMPMYQIVTP: 11.7
TDKHQHMHHVTHVA: 12.8

Set 5 — target: vanadate, free oxyanion; method: microfluidic competitive inhibition; matrix: in vitro, cell-free expressed; tested at: not given; direction: lower = stronger binding; measurement: oxyanion analog dissociation constant
Notes: derived from inhibition constants, unchanged parent 676 nM
Starting sequence: PafA, mature enzyme, eGFP fusion (Elizabethkingia meningoseptica, UniProt Q9KJX5); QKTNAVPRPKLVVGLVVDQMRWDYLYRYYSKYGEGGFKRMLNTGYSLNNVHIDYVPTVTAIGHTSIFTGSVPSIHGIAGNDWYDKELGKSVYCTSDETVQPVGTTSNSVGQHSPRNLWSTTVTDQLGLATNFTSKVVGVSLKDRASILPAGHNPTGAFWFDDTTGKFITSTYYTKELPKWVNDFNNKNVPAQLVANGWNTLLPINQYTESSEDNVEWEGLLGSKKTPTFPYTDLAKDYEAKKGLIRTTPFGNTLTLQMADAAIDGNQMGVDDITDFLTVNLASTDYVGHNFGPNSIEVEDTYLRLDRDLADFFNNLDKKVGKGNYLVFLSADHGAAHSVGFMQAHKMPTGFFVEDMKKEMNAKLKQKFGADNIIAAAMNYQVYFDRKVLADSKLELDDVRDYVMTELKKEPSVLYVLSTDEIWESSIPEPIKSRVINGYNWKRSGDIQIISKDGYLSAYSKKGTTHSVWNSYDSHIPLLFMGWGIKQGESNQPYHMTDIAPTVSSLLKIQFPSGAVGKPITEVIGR
W423G: 574 nM
T171V: 626 nM
D420V: 721 nM
N252G: 914 nM
L305V: 609 nM
K236G: 583 nM
